{"data": "Results of several laboratories", "note": "Lines come from different studies, so protocols differ. ± marks the error that the study gave."}
{"SMILES": "O=C(Cc1cccc(I)c1)N[C@H]1CCOC1=O", "test system": "TRIS buffer with 0.5% DMSO", "conditions": "50 µM, pH 7, 37 °C", "half-life": "8.5 to 11 h"}
{"SMILES": "CCC(CC)O[C@@H]1C=C(C(=O)OC(OC(=O)[C@@H](N)C(C)C)C(C)C)C[C@H](NC(=N)N)[C@H]1NC(C)=O (single isomer, unassigned)", "test system": "acetate buffer", "conditions": "pH 4.5, 37 °C", "half-life": "stable"}
{"SMILES": "COc1cc2nc(N3CCCCC3)nc(NC3CCN(C)CC3)c2cc1OC", "test system": "rat plasma", "conditions": "plasma stability", "half-life": "> 4 h"}
{"SMILES": "Oc1cc2nc(c1)CNCc1cc(O)cc(n1)CNC2", "test system": "mouse liver microsomes", "conditions": "2 µM, with: NADPH", "half-life": "> 2 h"}
{"SMILES": "Cc1cc(C)cc(OCC(N)c2ccccc2)c1 (stereo not drawn)", "assay": "chemical stability, HPLC", "conditions": "pH 7.4, 37 °C", "half-life": "> 720 h"}
{"SMILES": "CCC(=O)N[C@@H](C)C(=O)OCC(=O)N[C@@H](C)C(=O)O", "test system": "water", "conditions": "pH 2, 65 °C", "half-life": "93.3 h"}
{"SMILES": "Cc1cccc(Cn2ncc3c4cc(F)c(CN(C)C)cc4n(C)c3c2=O)n1", "test system": "Dutch-belted rabbit, vitreous", "conditions": "intravitreal, 100 µM vitreous concentration", "half-life": "101 h"}
{"SMILES": "CCC(CC)[C@H](NC(C)=O)[C@@H]1[C@H](O)[C@@H](C(=O)N[C@H](C(=O)O)[C@@H](C)CC)C[C@H]1NC(=N)N", "test system": "phosphate buffer", "conditions": "pH 1.2, 37 °C", "half-life": "43.2 ± 1.3 h"}
{"SMILES": "COc1cc(C)c(Cc2ccc(O)cc2)cc1[C@@H]1S[C@H](CO)[C@@H](O)[C@H](O)[C@H]1O", "test system": "Japanese T2DM patients, plasma", "conditions": "0.5 mg luseogliflozin, day 7, once daily", "half-life": "18.6 ± 2.45 h"}
{"SMILES": "CC(C)C[C@@H]1NC(=O)[C@H](C)NC(=O)[C@H](CC2CCN(C(=N)N)CC2)NC(=O)[C@H](Cc2ccccc2)NC(=O)[C@H](CCCNC(=N)N)NC(=O)[C@H](C)NC(=O)[C@@H]2CCCN2C(=O)[C@@H](N)CSSC[C@@H](C(=O)O)NC(=O)[C@H](Cc2ccccc2)NC1=O", "assay": "remaining inhibitory activity", "test system": "human plasma", "half-life": "> 24 h"}
{"SMILES": "CC(C)(C)c1nc(-c2ccc(NC(=O)c3cccs3)cc2Cl)no1", "assay": "plasma stability", "test system": "mouse plasma", "conditions": "5 µM, 37 °C", "half-life": "1.3 ± 0.268 h"}
{"SMILES": "Nc1nc2c(ncn2COCCOC(=O)[C@@H](N)CS)c(=O)[nH]1", "test system": "DPBS", "conditions": "pH 7.4, 34 °C, chemical hydrolysis", "half-life": "3.1 ± 0.3 h"}
{"SMILES": "[2H]C1([2H])CC[C@@H](C[C@@H](C#N)NC(=O)[C@@H]2[C@@H]3[C@H](CN2C(=O)[C@@H](NC(=O)C(F)F)C(C)(C)C)C3(C)C)C(=O)N1", "test system": "human liver microsomes", "conditions": "microsomes 0.5 mg/mL", "half-life": "1.36 h"}
{"SMILES": "CN[C@H](C)C(=O)NCC(=O)N[C@@H](Cc1ccc(O)cc1)C(=O)N[C@H]1CCCCNC(=O)C[C@@H](C(=O)N[C@@H](Cc2cccc3ccccc23)C(=O)N[C@@H](Cc2cccc3ccccc23)C(=O)N[C@H](CCC(=O)O)C(=O)O)NC(=O)[C@H](Cc2ccc(O)cc2)NC(=O)[C@H]([C@@H](C)O)NC(=O)[C@@H]2CCCN2C(=O)[C@H](CC(N)=O)NC1=O", "test system": "human plasma", "conditions": "37 °C", "half-life": "≥ 24 h"}
{"SMILES": "CC(=O)O[C@@H]1CC[C@@]2(C)C(CC[C@]3(C)C2C(=O)C=C2C4[C@@H](C)[C@H](C)CC[C@]4(C)CC[C@]23C)[C@@]1(C)C(=O)OCC(=O)Oc1cc(C)ccc1C(C)C (stereo partly drawn)", "assay": "HPLC", "test system": "0.1 M HCl", "conditions": "75 µM, pH 1.4, 37 °C, simulated gastric fluid", "half-life": "25.3 h"}
{"note": "Excerpt of the above:"}
{"SMILES": "O=C(Cc1cccc(I)c1)N[C@H]1CCOC1=O", "test system": "TRIS buffer with 0.5% DMSO", "conditions": "50 µM, pH 7, 37 °C", "half-life": "8.5 to 11 h"}
{"SMILES": "Oc1cc2nc(c1)CNCc1cc(O)cc(n1)CNC2", "test system": "mouse liver microsomes", "conditions": "2 µM, with: NADPH", "half-life": "> 2 h"}
